Published values from different studies.
Each numbered part is a random draw from the data of one study; scales do not carry over between parts. Positions count from the first letter of the parent shown.

Series 1 — technique: RNA Bind-n-Seq; molecule type: RNA; medium: in vitro; concentration: 365 nM; reference: no-protein control; direction: higher = stronger binding
Target: RNA binding protein fox-1 homolog 2, RRM domain, GST-SBP tag (RBFOX2, Homo sapiens, UniProt O43251-10, residues 100-194)
Notes: natural RNA segment, single round, ends assumed
All sequences stand within: GGGAGUUCUACAGUCCGACGAUC … UGGAAUUCUCGGGUGCCAA
Construct (chain): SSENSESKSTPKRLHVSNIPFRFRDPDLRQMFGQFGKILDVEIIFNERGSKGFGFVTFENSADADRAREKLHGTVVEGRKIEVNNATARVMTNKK
| Strand | RBNS enrichment (R) |
| --- | --- |
| AUCUUCUGAGGUCAAUUAAAGGAGAAAAAAUACAAUUUCUCACUUUGCAUUUAGUCAAAAGAAAAAAUGCUUUAUAGCAAAAUGAAAGAGAACAUGAAAUGCUUCUUUCU | 0.263 |
| CCGCUCACAGGCCCUCAGCUGUCGGUGGUUCCUGCAGCUUUUGUUCCUCGCAUGUAAUCAGGGAGCACGCAUGCACGUUGAGUGGGUGCAUCCUGCCUAAGCUGUGUCCC | 21 |
| AAUUCGUAUAGGGUGCAGAGUAAUUUCUUAUUGUGAGGAACUGUCCAAUGUAUUGCAAGAUGUUCUGCAUACUUGGCUCUCACAUACUAAAUGCUAGUAGCGCCCCCACC | 0.269 |
| AAGAAAAUUAUUGAUGAAGUGGCCUUGUAAGUACAUGGUCUCUGAAAAAAAUUCAAGUUUUGUUCUUAGGAUGUCCAAUAGAAGAUAACUGUGGAUGAUAACUAAUUCUA | 0.714 |
| GAGAUCCUCCUUCCUCUGCCUCGGGAGGGCUGGGGCUAAAGGCACACAGCACCAAACCCAGCUAAGUACAGCGUCUAAACAUUUCUUAAAGCAUAUGAUAUUGGUUUUAA | 0.514 |
| GGUCCUGGAUGCCCAGCUGGGCUACCCAGGUGCCAGCAUGUUUGCAUGGGAGGAAAGGCUCCACUUGCCCUUAACUCAAGAAGCAGAGCUUGUGCUAUGCACGGGGUGUC | 27.2 |
| GGAGUUUUUAAUACCAAUGACAGAACAGAGAUUUGUGUGCUCAUCUUAAGAGCCAGAGCCAUAUAAGCAUCUUGGGAAAGCAAGUUUGAACCAGCUGCUGGUGUAAUGUA | 1.22 |
| GAGAAGGUAACCUUUGCCUACAUAUGGCUGUCCUACAGGGUCUCCCUUGCCUGCAGUGGGAGAGUUGCCCAGUGGUUCCCCAUCCCCCAUUAUAUUCUAAUGCUAAAUCA | 0.571 |

Series 2 — technique: RNA Bind-n-Seq; molecule type: RNA; medium: in vitro; concentration: 200 nM; notes: whole 134-nt RNA, ends assumed; together with: 150 mM KCl; reference: input library; direction: higher = stronger binding
Target: Fragile X messenger ribonucleoprotein 1, C-terminal low-complexity region (Fmr1, Mus musculus, UniProt P35922)
All sequences stand within: GGGAGUUCUACAGUCCGACGAUC … UGGAAUUCUCGGGUGUCAAGG
| Strand | log2 enrichment |
| --- | --- |
| CACAGACAACACGCACCCACACAGACACAGAGGGAAGGGGUUGGGAUGGGGACAGGGUGCACAGCAGGGCGGGGUAGAAACCCAGCCCCU | 1.37 |
| CAUAGACAACACGCACCCACACAGACACAGAGGGAAGGGGUUGGGAUGGGGACAGGGUGCACAGCAGGGCGGGGUAGGACCCCAGCCCCU | 1.31 |
| AAGUCCUGUGCUACACAUCGUAUGUACCGAAUCGGGAAAAAAAGGGAGGGAAAGGGAAAGUAUUAUGUUACGCCGUUCGGAUCUGCACUU | 0.323 |
| CUCAAGUCCUGUGCUACACAUCGUAUGUACCGAAUCGGAAAAAGGUUUGGAGGAAAGUAUUAUGUUACGCCGUUCGGAUCUGCACUUCCA | -0.486 |
| CUGUGCUACACAUCGUAUGUACCGAAUCGGGUUUUUUUGGGGUUUUUUUGGUUUUUUUGGGGAAAGUAUUAUGUUACGCCGUUCGGAUCU | -0.28 |
| UCCUCAAGUCCUGUGCUACACAUCGUAUGUACCGAAUCGGGGAGGAGGAGGGAAAGUAUUAUGUUACGCCGUUCGGAUCUGCACUUCCAG | 0.394 |
| UGGCCAAUAGCAUCCUUUUCCAGUCUUCCGGUCUGACAAAUGGAAUAAUAGAAGAAAAGGACAUACAUGAAGAAUUGCCAAAACGGAAAG | -0.624 |
| ACCAUGCAGGUGGGCAUCUUUGGGAAGUGGGGCAAGGGGGGGAUAGGGAGGGGGGUAACACUUUGGGAACAGCUGGUCCCAGGUCGUUUC | 0.992 |
| UUAAUGAUAUAAGUAGAGAGUAGUAUCCUGGUGGAGUUGUAACCACUAUUUUUGUUUUCUAGAUCCCUAUGGUUCAGGAGGCCAGAAAUU | -0.715 |

Series 3 — technique: universal PBM; molecule type: double-stranded DNA, one strand shown; medium: in vitro; concentration: 600 nM; direction: higher = stronger binding
Target: Sal-like protein 4, full length isoform A (SALL4, Homo sapiens, UniProt Q9UJQ4, residues 1-1053)
Chain of UniProt Q9UJQ4 (whole entry, looked up): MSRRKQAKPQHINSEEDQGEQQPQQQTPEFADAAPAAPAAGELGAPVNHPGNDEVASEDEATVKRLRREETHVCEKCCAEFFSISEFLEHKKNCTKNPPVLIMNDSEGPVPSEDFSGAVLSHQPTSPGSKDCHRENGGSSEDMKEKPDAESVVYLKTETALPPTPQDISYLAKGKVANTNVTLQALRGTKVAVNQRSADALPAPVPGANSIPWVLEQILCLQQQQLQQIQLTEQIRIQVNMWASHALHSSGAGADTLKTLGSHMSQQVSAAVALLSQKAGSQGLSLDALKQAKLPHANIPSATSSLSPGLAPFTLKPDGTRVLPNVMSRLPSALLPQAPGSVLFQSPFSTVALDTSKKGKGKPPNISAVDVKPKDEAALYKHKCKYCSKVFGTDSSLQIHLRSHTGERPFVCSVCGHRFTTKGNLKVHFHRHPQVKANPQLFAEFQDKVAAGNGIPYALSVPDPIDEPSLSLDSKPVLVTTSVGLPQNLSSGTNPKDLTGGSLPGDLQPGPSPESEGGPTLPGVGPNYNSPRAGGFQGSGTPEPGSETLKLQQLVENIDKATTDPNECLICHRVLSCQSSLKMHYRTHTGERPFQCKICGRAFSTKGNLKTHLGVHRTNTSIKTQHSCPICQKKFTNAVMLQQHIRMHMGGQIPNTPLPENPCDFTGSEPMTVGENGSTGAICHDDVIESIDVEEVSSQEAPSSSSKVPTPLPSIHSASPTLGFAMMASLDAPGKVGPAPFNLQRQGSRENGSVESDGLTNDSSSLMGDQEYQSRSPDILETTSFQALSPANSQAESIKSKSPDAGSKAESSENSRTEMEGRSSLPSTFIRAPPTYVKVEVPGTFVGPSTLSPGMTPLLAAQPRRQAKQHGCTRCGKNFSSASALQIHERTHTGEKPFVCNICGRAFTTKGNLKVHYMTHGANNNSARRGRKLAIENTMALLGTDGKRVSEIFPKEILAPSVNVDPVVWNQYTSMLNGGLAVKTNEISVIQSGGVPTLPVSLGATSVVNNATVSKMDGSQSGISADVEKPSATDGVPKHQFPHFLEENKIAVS
Notes: 8-mer, flanks averaged, mean of replicates
| Strand | E-score |
| --- | --- |
| GCTGACAC | -0.103 |
| CCGGACTC | -0.157 |
| GTCCCTTA | -0.0293 |
| CTTACCAA | 0.165 |
| ACCTACCT | -0.0343 |
| CTTTGTCA | 0.069 |
| GACCGAAC | -0.0663 |
| GACAACAC | -0.119 |
| CAGCTAAC | -0.0713 |
| TATTGGCA | 0.204 |
| GGGGTCGA | -0.239 |
| AACAATAG | 0.219 |
| AAGAATTG | 0.153 |
| GTTCAGCA | -0.133 |
| GCCATTCA | -0.036 |
| TTAAGGAA | 0.125 |
| GTTGTGTA | 0.157 |
| GCCAGCGA | -0.316 |
| ACACGCAG | -0.199 |
| GCAATGCC | -0.105 |
| ACCTGCAT | -0.0302 |
| GTAGGCGA | -0.168 |
| ACGACGCC | -0.288 |
| AGTCGACA | 0.0227 |
| ACAGAAGT | 0.222 |

Series 4 — target: CCND3, cyclin fold, Cln2 fusion (human); technique: yeast growth competition, sequencing; medium: yeast; notes: weak parent motif; reference: not given; direction: higher = stronger binding
Parent: ORC1 docking peptide (human); PRARKRLELGNLG; partner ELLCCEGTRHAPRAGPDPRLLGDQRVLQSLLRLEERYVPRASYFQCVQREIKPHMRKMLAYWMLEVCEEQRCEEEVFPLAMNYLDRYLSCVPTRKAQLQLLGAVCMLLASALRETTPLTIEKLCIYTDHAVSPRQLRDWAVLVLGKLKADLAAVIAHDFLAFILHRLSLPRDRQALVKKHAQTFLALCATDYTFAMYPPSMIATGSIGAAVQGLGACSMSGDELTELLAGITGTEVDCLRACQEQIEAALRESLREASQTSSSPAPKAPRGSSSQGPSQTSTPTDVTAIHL
| Substitution | normalised enrichment score |
| --- | --- |
| P1I | 0.078 |
| L12R | 0.06 |
| L7A | 0.0305 |
| G10P | 0.0824 |
| E8F | 0.146 |
| L7H | 0.0882 |
| L9Q | 0.155 |
| L7P | -0.00242 |
| K5G | 0.109 |
| L7K | 0.201 |
| E8H | 0.0493 |
| L12G | 0.0733 |
| G13Y | 0.138 |
| G10Q | 0.07 |
| G10Y | 0.336 |
| L9A | 0.144 |
| N11H | 0.136 |
| R4T | 0.159 |
| N11Q | 0.0236 |

Series 5 — technique: RNA Bind-n-Seq; molecule type: RNA; medium: in vitro; concentration: 20 nM; notes: 6-mer, flanks averaged, single round; together with: 150 mM KCl; reference: input library; direction: higher = stronger binding
Target: TAR DNA-binding protein 43, full length, His tag (TARDBP, Homo sapiens, UniProt Q13148, residues 1-414)
| Strand | 6-mer enrichment (R) |
| --- | --- |
| UUUGAC | 0.629 |
| CGACUA | 0.618 |
| UCGACC | 0.622 |
| CCUGGA | 0.805 |
| UACAUU | 0.567 |
| ACUUGC | 0.628 |
| GGGUCA | 2.02 |
| UGGGUU | 1.61 |
| CAAUCG | 0.637 |
| AGAGGA | 1.66 |
| UAGGUG | 1.38 |
| GCCGUC | 0.831 |
| ACUUAC | 0.567 |
| GGUCAU | 0.866 |

For quick reference, copied from above (series 5):
| Strand | 6-mer enrichment (R) |
| --- | --- |
| ACUUAC | 0.567 |
| CGACUA | 0.618 |
| ACUUGC | 0.628 |
| GCCGUC | 0.831 |
| CCUGGA | 0.805 |
| UGGGUU | 1.61 |
| GGGUCA | 2.02 |
| GGUCAU | 0.866 |
| UCGACC | 0.622 |
| UUUGAC | 0.629 |
| CAAUCG | 0.637 |
| UAGGUG | 1.38 |
